Experimental data gathered from unrelated publications.
Every numbered part comes from another study and shows a few of its results, in no order. Changes are numbered by the printed parent chain.

Study 1
Target: human cyclin B2
Read-out: peptide binding
Method: yeast competitive growth sequencing
Molecule type: peptide
Organism: Saccharomyces cerevisiae
Strain: cyclin B2-Cln2 fusion
Concentration: concentration not given
Notes: peptide tiling library
Reading: direction not given
Sequence | binding enrichment score
NRLLKLFTRCLTPLVP | -0.828
HPESPPRKRLKSKGSD | 0.954
RVSGLLSWTLSRVLWL | -0.239

Study 2
Target: ABI1, truncated, D143A, DHFR fusion (Arabidopsis thaliana)
Method: DHFR PCA, deep sequencing
Matrix: yeast
Notes: methotrexate growth selection, single substitutions
Added: (+)-ABA 1.4 µM
Reference: wild-type fitted maximum
Reading: higher = stronger binding
Starting sequence: PYL1, truncated, DHFR fusion (Arabidopsis thaliana); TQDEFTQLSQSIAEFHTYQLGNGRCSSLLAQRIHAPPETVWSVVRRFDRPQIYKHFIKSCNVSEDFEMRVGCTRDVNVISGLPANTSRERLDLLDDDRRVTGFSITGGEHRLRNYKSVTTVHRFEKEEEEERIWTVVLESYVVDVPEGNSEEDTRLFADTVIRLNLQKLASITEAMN
Variant | relative binding score
T17E | 12.6%
S9E | 71.3%
W134Y | 84.3%

Study 3
Target: RNA binding protein fox-1 homolog 2, RRM domain, GST-SBP tag (RBFOX2, Homo sapiens, UniProt O43251-10, residues 100-194)
Method: RNA Bind-n-Seq
Molecule type: RNA
Matrix: in vitro
Concentration: 365 nM
Notes: natural RNA segment, single round, ends assumed
Reference: no-protein control
Reading: higher = stronger binding
Shared flanks, not repeated: GGGAGUUCUACAGUCCGACGAUC … UGGAAUUCUCGGGUGCCAA
Oligonucleotide | RBNS enrichment (R)
CUAAAAAUAGACCCUUUCUUCCCAAAGGUUGGGAGGUGGGACCUGAGCAGUGGAGUGAAGCCACACCCCACAAUUUUUUAUUUAUUUUUUUAUUUUUAGAUAGGGUUUCA | 0.664
GAGGUCAGUGUUUACUGUUUUAUAUAUGCCUUCUUUUUCCUGUUUGAGCUUCUCUCUUUGAAGGAUUCUAACAGAACAAAGCUGCUGAUCAACCUAAGUUGGAAACAGAA | 0.611
AAAUUAUGGAGGUUCCUUAGUGCUCAAUAAUAUAAGACCUGGUGUUAUUAGAACGAGUCUUUCUUAUAAACUAACAGAGCAGGUAUAUGCCUGUUAGACCUUAGCUGUGG | 0.799
UUUCCCUUCCUUUGGACAGUGUUACAAUGAACACUUAGCAUUCUGUUUUUGGUUGAUAGUUGAGCAAACUGACAUUACAGAAAGUGCCUUAGACACUACAGUACUAAGAC | 0.512
GCAUGAGAUGAUAUUGUACUUGUAUAGGAUUCUAGCAAUUCAUAAUAAAUAUGUAAGACUAGGCUUUACUGUCUUAUGCUUAUGGACAUUGUAUAUUUGUAUUUUAUGAC | 6.06
UCUUAGUUCUAAAGAAUCUUGGGUUAUUUUGUAGCGGUGCCAGUAUUUCAGUAGAUGGGAUUUCAGCCAAGUAGGUUCCCCUGUAACCUCCUACAAAGCAAUAUUCCAAA | 0.848

Further values, each from its own experiment
Molecule | target | assay | system | conditions | scale | measurement | value
PhoQ, residues 284 288 289 292 302 303 SLKLQV | PhoP, residues 12 14 15 18 19 NNFVT (Escherichia coli, UniProt P23836) | Sort-seq, item: YFP reporter | E. coli | PhoQ-PhoP variant library, added: 10 µM Mg2+ | reference: high Mg2+ state, higher = stronger signaling | fold induction | 7.87

Some of these lines once more (further values, each from its own experiment):
Molecule | target | assay | system | conditions | scale | measurement | value
PhoQ, residues 284 288 289 292 302 303 SLKLQV | PhoP, residues 12 14 15 18 19 NNFVT (Escherichia coli, UniProt P23836) | Sort-seq, item: YFP reporter | E. coli | PhoQ-PhoP variant library, added: 10 µM Mg2+ | reference: high Mg2+ state, higher = stronger signaling | fold induction | 7.87
